Measured values gathered from unrelated publications.
Each line is one published result; not all experiments were run side by side. ± marks the error that the study gave.

| Compound | tested on | assay | system | conditions | scale | quantity | result |
| --- | --- | --- | --- | --- | --- | --- | --- |
| CC(C)C[C@H](NC(=O)[C@H](CCCCN)NC(=O)OCC1c2ccccc2-c2ccccc21)C(=O)N[C@H](C(=O)N[C@@H](Cc1ccccc1)C(=O)N[C@@H](Cc1ccccc1)C(=O)N[C@@H](CCCCN)C(=O)NCC(=O)N[C@@H](Cc1ccccc1)C(=O)N[C@@H](C)C(=O)N[C@@H](Cc1c[nH]c2ccccc12)C(=O)N[C@@H](CC(N)=O)C(=O)N[C@H](C(=O)N[C@H]1CSSC[C@@H](C(=O)N[C@@H](Cc2c[nH]cn2)C(=O)N[C@@H](CCCNC(=N)N)C(=O)N[C@@H](CCCNC(=N)N)C(=O)N[C@@H](C)C(=O)N[C@@H](CC(N)=O)C(N)=O)NC(=O)[C@H](C(C)C)NC(=O)[C@H](CCCNC(=N)N)NC(=O)[C@H](C(C)C)NC(=O)CNC(=O)[C@H](CC(N)=O)NC(=O)[C@H](CCCNC(=N)N)NC(=O)[C@H](Cc2ccc(O)cc2)NC(=O)[C@H](C(C)C)NC1=O)C(C)C)C(C)C | – | – | ICR mice, blood | intraperitoneal, 10 mg/kg, day 5 | – | eosinophils | 2.44 ± 0.26% |
| O[C@H]1CCCN[C@@H]1CCCn1cnc2c(Cl)c(Cl)ccc21 | – | – | healthy human, plasma | oral, 150 mg, steady state, added: nintedanib 150 mg | – | CL/F | 2490 mL/min |
| O=C(Nc1ccccc1)C1CCN(C(=O)Oc2cccnc2)CC1 | – | adverse event reporting | healthy women | oral, 20 mg, 7 days | – | subjects with Tachycardia adverse event | 7.1% |
| CN1CC[C@@H](c2c(O)cc(O)c3c(=O)cc(-c4ccc(C(F)(F)F)cc4Cl)oc23)[C@@H]1CO | – | item: grade 3 febrile neutropenia | relapsed or refractory haematologic malignancy patients | oral, phase dose escalation, all doses | – | patients with adverse event | 7.5% |
| O=C(O)CCC(CP(=O)(O)O)C(=O)O (stereo not drawn) | – | – | processed derivatized rat plasma | 8 µg/mL, 18 h, 10 °C, autosampler, diluted 1:10 | – | measured concentration | 8.14 ± 0.47 µg/mL |
| Cc1c(COC(=O)[C@@H]2[C@H](/C=C(\Cl)C(F)(F)F)C2(C)C)cccc1-c1ccccc1 (racemic) | – | item: CYP2C8 | human, age 5 years, recombinant human CYP2C8 | 0.1 µM | – | enzyme contribution to clearance | 6.97% |
| CC(C)C[C@@H]1NC(=O)CNC(=O)[C@H](CC(N)=O)NC(=O)[C@H](CCCNC(=N)N)NC(=O)[C@H]([C@@H](C)O)NC(=O)[C@@H]2CSSC[C@@H]3NC(=O)[C@H]([C@@H](C)O)NC(=O)CNC(=O)CNC(=O)[C@H](C(C)C)NC(=O)[C@@H]4CSSC[C@H](NC(=O)[C@H]([C@@H](C)O)NC(=O)[C@H](CSSC[C@H](NC(=O)[C@H](C(C)C)NC(=O)[C@@H]5CCCN5C1=O)C(=O)NCC(=O)N[C@@H](CCC(=O)O)C(=O)N[C@@H]([C@@H](C)O)C(=O)N4)NC(=O)CNC(=O)[C@@H]1CCCN1C(=O)[C@H]([C@@H](C)O)NC(=O)[C@H](CCCCN)NC3=O)C(=O)N[C@@H](CO)C(=O)N[C@@H](Cc1c[nH]c3ccccc13)C(=O)N1CCC[C@H]1C(=O)N[C@@H](C(C)C)C(=O)N2 | – | HPLC | ammonium bicarbonate | 180 µM, 7 days, pH 9.0, 25 °C, deamidation stability | – | remaining peptide | 95.5 ± 0.9% |
| Cc1c(C(=O)O)ccc2c3n(nc12)[C@@H]1[C@H](C3)N(CC2CC2)[C@@]2(C(=O)Nc3cc(Cl)ccc32)[C@H]1c1cccc(Cl)c1F | – | – | athymic nude mouse, orthotopic tumor, orthotopic brain tumor | 10 mg/kg, 24 h, single dose | – | tumor concentration | 263 nmol/L |
| CCC1(C2=NCCN2)Cc2ccccc2O1 (stereo not drawn) | Plasmodium falciparum | – | 7G8 | – | – | IC50 | 6.31 µM |
| CCCCc1nc2cc(/C=C/C(=O)NO)ccc2n1CCN(CC)CC | – | – | mouse, SET-2 subcutaneous xenograft | 75 mg/kg every other day, day 18 | relative to: baseline | body weight | 100% |
| C=CC(=O)Nc1cc(Nc2nccc(Nc3cc(Cl)c(F)cc3C(C)(C)O)n2)c(OC)cc1N1CC[C@@H](N(C)C)C1 | – | – | human patients | oral, 400 mg, treatment-emergent adverse events | – | patients with nausea | 40% |
| NCCCC[C@@H]1NC(=O)[C@@H](Cc2c[nH]c3ccccc23)NC(=O)[C@H](c2ccccc2)NC(=O)[C@@H]2C[C@@H](OC(=O)NCCN)CN2C(=O)[C@H](Cc2ccccc2)NC(=O)[C@H](Cc2ccc(OCc3ccccc3)cc2)NC1=O | – | – | healthy human volunteers | 1950 µg twice daily | – | subjects with abdominal discomfort | 14% |
| N=C(N)NCCC[C@@H](NC(=O)[C@@H](N)Cc1ccccc1)C(=O)N[C@@H](Cc1ccccc1)C(=O)N[C@@H](CCCCN)C(N)=O | – | LC-MS | human | 15 mg, 5.833 h | – | median amount excreted in urine | 5.25e+06 ng |
| C[C@@H](NC(=O)N1C(=O)[C@H](Cc2ccnc(N)c2)[C@H]1C(=O)O)C1CCCCC1 | – | – | healthy adult Chinese volunteers | continuous intravenous infusion, 1.0 mg/kg/h, 5-day infusion, CTCAE 5.0 grading | – | incidence of decreased neutrophil | 0% |
| Clc1ccc(Cl)c(-c2cccc(Cl)c2Cl)c1 | – | – | polyethylene-water partitioning | PCB compilation | relative to: maximum over minimum K | literature range factor | 1.3 |
| CN1CCN(c2ccc(Nc3nccc(-c4ccc(C#N)cc4)n3)cc2C(F)(F)F)CC1 | – | – | zebrafish embryos | 25 µM, 5 d | – | toxicity | 0% |
| COc1ccnc(C(=O)N[C@H]2COC(=O)[C@H](Cc3ccccc3)[C@@H](OC(=O)C(C)C)[C@H](C)OC2=O)c1OCOC(=O)C(C)C | – | – | rat | inhalation, nose only, 4 h, highest attainable concentration | – | LC50 | > 0.53 µg/mL |
| C[C@@H]1OC(=O)NN=C1c1ccc(-c2ccc(F)cc2)c(C(F)(F)F)c1 | – | phase I trial, item: alkaline phosphatase increased | human patients | 5 mg load, 0.25 mg daily, worst grade 1 | – | patients with TEAE | 0% |
| CC(C)C[C@@H]1NC(=O)CNC(=O)[C@H](CC(N)=O)NC(=O)[C@H](CCCNC(=N)N)NC(=O)[C@H]([C@@H](C)O)NC(=O)[C@@H]2CSSC[C@@H]3NC(=O)[C@H]([C@@H](C)O)NC(=O)CNC(=O)CNC(=O)[C@H](C(C)C)NC(=O)[C@@H]4CSSC[C@H](NC(=O)[C@H]([C@@H](C)O)NC(=O)[C@H](CSSC[C@H](NC(=O)[C@H](C(C)C)NC(=O)[C@@H]5CCCN5C1=O)C(=O)NCC(=O)N[C@@H](CCCCN)C(=O)N[C@@H]([C@@H](C)O)C(=O)N4)NC(=O)CNC(=O)[C@@H]1CCCN1C(=O)[C@H]([C@@H](C)O)NC(=O)[C@H](CC(N)=O)NC3=O)C(=O)N[C@@H](CO)C(=O)N[C@@H](Cc1c[nH]c3ccccc13)C(=O)N1CCC[C@H]1C(=O)N[C@@H](C(C)C)C(=O)N2 | – | HPLC | ammonium bicarbonate | 180 µM, 7 days, pH 9.0, 25 °C, deamidation stability | – | remaining peptide | 81.3 ± 1.4% |
| CC/C(=C(\c1ccccc1)c1ccc(OCCN(C)C)cc1)c1ccccc1 | – | – | CD-1 mouse, male, plasma | intraperitoneal, 3 mg/kg | – | elimination rate constant | 2.48e-05 s⁻¹ |
| NC(=O)c1cccc(-c2cc(OC(=O)NC3CCCCC3)ccc2O)c1 | – | – | mouse | intravenous, 10 mg/kg | – | elimination half-life | 1.6 h |

| Compound | tested on | assay | system | conditions | scale | quantity | result |
| --- | --- | --- | --- | --- | --- | --- | --- |
| c1cc2ccc3cccc4ccc(c1)c2c34 | – | – | fresh water | 12 (unit not given), 20 °C, S30-2 sampler, 30 µm | – | log K(PDMS-water) | 4.33 |
| C[C@]1(CO)Cc2ncn(-c3ccc(C#N)c(Cl)c3)c2C(=O)O1 | – | – | Japanese subjects | 3 mg single dose | – | any adverse event incidence | 0% |
| CCc1ccc(CC/C=C/c2ccc3c(c2)C(=O)CC3)cc1 | – | – | Sprague-Dawley rat, female | oral, 120 mg/kg/day, 14 days | – | Mononuclear percentage | 3.27% |
| Clc1ccc(Cl)c(-c2ccccc2Cl)c1 | – | – | polyethylene-water partitioning | PCB compilation | relative to: maximum over minimum K | literature range factor | 1.3 |
| CC(=O)c1c(C)c2cnc(Nc3ccc(C4CCN(CCS(C)(=O)=O)CC4)cn3)nc2n(C2CCCC2)c1=O | – | – | HR+/HER2- advanced breast cancer patients | oral, dose not given, grade 3 or 4 | – | platelet count decreased | 1.2% |
| COc1cc2c(Oc3ccc4[nH]c(C)cc4c3F)ccnc2cc1OCC1(N)CC1 | – | – | paediatric recurrent refractory sarcoma | 8 mg | – | grade 1 or 2 Myalgia | 50% |
| CC(C)CC(=O)OC[C@H]1O[C@@](C#N)(c2ccc3c(N)ncnn23)[C@H](O)[C@@H]1O | – | – | Sprague-Dawley rat, female, urine | 80 mg/kg, time not given | relative to: dose | recovery in urine | 0.00116% |
| CO[C@H]1C[C@@H]2CC[C@@H](C)[C@@](O)(O2)C(=O)C(=O)N2CCCC[C@H]2C(=O)O[C@H]([C@H](C)C[C@@H]2CC[C@@H](OC(=O)NCCOCCOCCOCCOCCOCCOCCOCCOCCC(=O)N3CCc4cc(Cn5nc(-c6ccc7oc(N)nc7c6)c6c(N)ncnc65)ccc4C3)[C@H](OC)C2)C[C@@H](O)[C@H](C)/C=C(\C)[C@@H](O)[C@@H](OC)C(=O)[C@H](C)C[C@H](C)/C=C/C=C/C=C/1C | – | dose-escalation trial | patients with advanced solid tumours | intravenous, 1.6 mg/3 mg weekly, any grade | – | decreased appetite TEAE incidence | 60% |
| CCCSc1ccc2nc(NC(=O)OC)[nH]c2c1 | – | – | mouse, blood | oral, 50 mg/kg, tolerability, mean | – | MCHC | 378 g/L |
| O=C(O)CCCOc1ccc(F)cc1-c1cc(-c2ccccc2C(F)(F)F)n(-c2ccccc2)n1 | – | item: ALP | Crl:CD(SD) rats, male, serum | iv, 25 µg/kg, 14 days | – | serum enzyme activity | 200 ± 47.4 U/L |
| CC(C)(c1ccccc1)c1cc(-n2nc3ccccc3n2)c(O)c(C(C)(C)c2ccccc2)c1 | – | – | human aged 6-11 years | concentration not given, spray sunscreen, mean | – | daily dermal exposure dose | 9.9 ng/kg/day |
| CCN1[C@@H](C(=O)NC23CCC(C(=O)O)(CC2)CC3)[C@H](c2cccc(Cl)c2F)[C@]2(C(=O)Nc3cc(Cl)ccc32)C12CCCCC2 | – | – | patients with advanced solid tumours | oral, 200 mg | – | Headache incidence | 0% |
| COc1cc(C2C3=C(COC3=O)N(CCO)c3cc4c(cc32)CCC4)cc(OC)c1OC (stereo not drawn) | – | – | female Sprague-Dawley rats | intraperitoneal, 400 mg/kg, 48 h, single dose, mean | – | body weight | 210 g |
| CN[C@H]1CC[C@@H](c2ccc(Cl)c(Cl)c2)c2ccccc21 | – | – | CD-1 mouse, male, plasma | intraperitoneal, 3 mg/kg | – | elimination rate constant | 7.87e-05 s⁻¹ |
| C=CCNc1c(O)cc2c(O)c1C[C@@H](C)C[C@H](OC)[C@H](O)[C@@H](C)/C=C(\C)[C@H](OC(N)=O)[C@@H](OC)/C=C\C=C(/C)C(=O)N2 | – | – | unresectable or metastatic STS, GIST, other | intravenous, 90 mg/m^2 | – | patients with sinus bradycardia | 0% |
| Cc1ccc(F)c2cc(C(=O)N[C@@H]3CCC[C@H](N4CC[C@H](N(C)S(C)(=O)=O)C4)C3)[nH]c12 | – | – | CD1 mouse, plasma | oral, 30 mg/kg, 1 h | – | plasma concentration | 548 ng/mL |
| COc1ccc(-c2c(-c3ccc(C#N)c(F)c3)nc(N3CCC(N)CC3)n(C)c2=O)cc1F | – | item: Fatigue/asthenia | relapsed/refractory marginal zone lymphoma patients | oral, 60 mg, grade 3 to 4, dose expansion | – | treatment-related adverse event incidence | 0% |
| C[C@]1(O)C[C@@](N)(c2ccc(-c3nc4n(c3-c3ccccc3)COc3ccncc3-4)cc2)C1 | – | – | human, advanced or metastatic solid tumours | 28 mg intermittent, phase I dose escalation | – | patients with TEAE | 100% |
| CC(C)n1c(C2CCNCC2)nc2c([N+](=O)[O-])c(Br)c(Br)cc21 | – | item: Asthenia | AML patients | 125 mg | – | adverse events any grade | 46% |
| CCN(CC)[C@@H]1CCc2c(F)ccc(O)c2C1 | Plasmodium falciparum | – | 7G8 | – | – | IC50 | 0.794 µM |
| c1ccc2c(c1)ccc1c3ccccc3ccc21 | – | – | fresh water | 12 (unit not given), 20 °C, S30-1 sampler, 30 µm | – | log K(PDMS-water) | 4.72 ± 0.05 |
